Results gathered from unrelated publications.
Parts stem from different laboratories: compare values within a part only. Substitutions count along the parent as printed.

Set 1
Target: UBE2W UBC core domain (UniProt Q96B02)
Method: yeast two-hybrid
Medium: yeast
Notes: mostly zero background
Relative to: not given
Reading: higher = stronger interaction
Measurement: lacZ reporter activity
B1: PHF7 RING domain (UniProt Q9BWX1); chain IQHGHVGEESCILCCEDLSQQSVENIQSPCCSQAIYHRKCIQKYAHTSAKHFFKCPQCNNRKEFPQEML
B2: RNF112 RING domain (UniProt Q9ULX5); chain QPMAPRELPTCSICLERLRDPISLDCGHDFCIRCFSTHRLPGCEPPCCPECRKICKQKRGLR
B3: TRIM38 RING domain (UniProt O00635); chain STKKMMEEATCSICLSLMTNPVSINCGHSYCHLCITDFFKNPSQKQLRQETFCCPQCRAPFHMDSLRP
B4: PEX2 RING domain (UniProt P28328); chain DNTLATSGKECALCGEWPTMPHTIGCEHIFCYFCAKSSFLFDVYFTCPKCGTEVHSLQPLK
B5: RNF5 RING domain (UniProt Q99942); chain ERGGAGATFECNICLETAREAVVSVCGHLYCWPCLHQWLETRPERQECPVCKAGISREKVVP
B6: RNF175 RING domain (UniProt Q8N4F7); chain LPTRSLSDNICAVCGQKIIVELDEEGLIENTYQLSCNHVFHEFCIRGWCIVGKKQTCPYCKEKVDLKRMIS
B7: RFPL2 RING domain (UniProt O75678); chain MAALFQEASSCPVCSDYLEKPMSLECGCAVCLKCINSLQKEPHGEDLLCCCSSMVSRKNKIRR
B8: RNF4 RING domain (UniProt P78317); chain TGLRPSGTVSCPICMDGYSEIVQNGRLIVSTECGHVFCSQCLRDSLKNANTCPTCRKKINHKRYHP
B9: TRIM35 RING domain (UniProt Q9UPQ4); chain PSRSFKEELLCAVCYDPFRDAVTLRCGHNFCRGCVSRCWEVQVSPTCPVCKDRASPADLRT
B10: TRIM52 RING domain (UniProt Q96A61); chain PMQTLQEEAVCAICLDYFKDPVSISCGHNFCRGCVTQLWSKEDEEDQNEEEDEWEEEEDEEAV
Target sequence (chain): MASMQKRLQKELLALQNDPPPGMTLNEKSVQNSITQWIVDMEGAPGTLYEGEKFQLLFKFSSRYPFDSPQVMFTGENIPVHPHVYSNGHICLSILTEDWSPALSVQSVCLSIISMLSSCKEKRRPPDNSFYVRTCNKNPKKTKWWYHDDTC
B1 (PHF7 RING domain): 0
KRQCSDVDDICSICQAEFQKPILLICQHIFCEECMTLWFNREKTCPLCRTVISDHINKW (RNFT1 RING domain (UniProt Q5M7Z0)): 0
LKQVSIRENCCSLCCDEVADTQLKPCGHSDLCMDCALQLETCPLCRKEIVSRIRQI (RSPRY1 RING domain (UniProt Q96DX4)): 0
B2 (RNF112 RING domain): 0
B3 (TRIM38 RING domain): 0
B4 (PEX2 RING domain): 0
B5 (RNF5 RING domain): 0
B6 (RNF175 RING domain): 0
B7 (RFPL2 RING domain): 0
B8 (RNF4 RING domain): 5140
B9 (TRIM35 RING domain): 0
QLQDEEDDSLCRICMDAVIDCVLLECGHMVTCTKCGKRMSECPICRQYVVRAVHVF (RNF34 RING domain (UniProt Q969K3)): 0
SYEDKSNDFVCPICFDMIEEAYMTKCGHSFCYKCIHQSLEDNNRCPKCNYVVDNIDHLY (COP1 RING domain (UniProt Q8NHY2)): 0
B10 (TRIM52 RING domain): 0

Set 2
Target: Prothrombin, mature alpha-thrombin (F2, Homo sapiens, UniProt P00734)
Method: aptamer microarray, sandwich
Molecule type: DNA with 2'F-ANA
Medium: in vitro
Concentration: 200 nM
Notes: whole 15-mer aptamer, many near background
Added: Cy3 exosite-II aptamer, 400 nM
Reading: higher = stronger binding
Measurement: mean fluorescence intensity
Sequence: GGTTGGTGTGGTTGG
2'F-ANA at 1 2 3 5 8 9 10 11 13 15: 48.1 a.u.
2'F-ANA at 1 3 4 5 8 11 12 14 15: 46.2 a.u.
2'F-ANA at 1 2 4 8 9 11 13 14 15: 58 a.u.
2'F-ANA at 1 4 9 10 11 13 15: 49.6 a.u.
2'F-ANA at 1 2 3 4 5 9 10 11 14: 45.5 a.u.
2'F-ANA at 2 3 6 7 11 14 15: 314 a.u.
2'F-ANA at 1 2 3 5 6 7 8 10: 46.3 a.u.
2'F-ANA at 1 2 4 5 6 8 9 11 12 15: 88.8 a.u.

Set 3
Target: CCNE1, cyclin fold, Cln2 fusion (human)
Method: yeast growth competition, sequencing
Medium: yeast
Notes: strong parent motif
Relative to: not given
Reading: higher = stronger binding
Measurement: normalised enrichment score
Parent: viral docking peptide; KGVKRKLFAEDSS; partner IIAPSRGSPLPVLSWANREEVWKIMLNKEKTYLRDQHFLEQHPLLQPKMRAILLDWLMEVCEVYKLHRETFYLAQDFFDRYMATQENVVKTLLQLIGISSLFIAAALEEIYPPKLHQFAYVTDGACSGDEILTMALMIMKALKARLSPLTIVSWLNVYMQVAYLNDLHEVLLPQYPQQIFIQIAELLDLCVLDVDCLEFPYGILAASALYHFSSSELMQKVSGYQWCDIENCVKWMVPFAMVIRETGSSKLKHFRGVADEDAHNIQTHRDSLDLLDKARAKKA
KSVKRKLFAEDSS [G2S]: 7.22
KGVKRKLFAHDSS [E10H]: 6.64
KGVKRKLGAEDSS [F8G]: 0.155

Set 4
Target: Ras GTPase-activating protein-binding protein 1, full length (G3BP1, Homo sapiens, UniProt Q13283)
UniProt Q13283, sequence (whole entry, looked up): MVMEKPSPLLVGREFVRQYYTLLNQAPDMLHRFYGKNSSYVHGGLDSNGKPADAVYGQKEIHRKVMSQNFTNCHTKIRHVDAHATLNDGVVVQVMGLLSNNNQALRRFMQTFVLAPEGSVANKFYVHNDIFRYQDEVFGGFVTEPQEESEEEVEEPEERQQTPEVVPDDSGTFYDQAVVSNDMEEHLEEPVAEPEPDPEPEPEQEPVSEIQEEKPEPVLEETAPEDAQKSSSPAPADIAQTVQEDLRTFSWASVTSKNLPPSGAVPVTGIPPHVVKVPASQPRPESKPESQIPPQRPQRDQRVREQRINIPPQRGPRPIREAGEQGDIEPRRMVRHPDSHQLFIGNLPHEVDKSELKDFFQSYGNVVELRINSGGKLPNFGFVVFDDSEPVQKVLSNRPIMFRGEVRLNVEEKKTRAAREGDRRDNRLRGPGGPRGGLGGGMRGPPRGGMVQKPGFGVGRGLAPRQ
Method: RNA Bind-n-Seq
Molecule type: RNA
Medium: in vitro
Concentration: 200 nM
Notes: whole 134-nt RNA, ends assumed
Added: 150 mM LiCl
Relative to: input library
Reading: higher = stronger binding
Measurement: log2 enrichment
All molecules: 7-deaza-guanosine replaces G
Constant ends, left off below: GGGAGUUCUACAGUCCGACGAUC … UGGAAUUCUCGGGUGUCAAGG
UUCAGGAUUGUGAGGGUGAAACUCCCAUUCACAAGGCAGCUCGCUCUGGGAGCCUAGAAUGCAUCAGUGCCCUUGUGGCGAAUGGGGCUC: -0.62
AAGUCCUGUGCUACACAUCGUAUGUACCGAAUCGGGAAAGGGAAAAAAAGGGUGGGAAAGUAUUAUGUUACGCCGUUCGGAUCUGCACUU: -0.193
CCUGUGCUACACAUCGUAUGUACCGAAUCGGGAAAAAAAGGGUUUUUGGGUUUUUUUGGGAAAGUAUUAUGUUACGCCGUUCGGAUCUGC: -1.88
AAGUCCUGUGCUACACAUCGUAUGUACCGAAUCGGAAAAAAAGGAAAGGUUUUUGGAAAGUAUUAUGUUACGCCGUUCGGAUCUGCACUU: -1.9
UUCCUCAGGGUAGAACUGGAUGACUCAGACGUGUUCCAUGGUGAACCUGAACCUGAGGAGCUGCCUGGAGGUAAGGGCCCUGAACUGUCC: -2.1
AGUCCUGUGCUACACAUCGUAUGUACCGAAUCGGUUUUUGGGUUUUUGGUUUUUGGGGAAAGUAUUAUGUUACGCCGUUCGGAUCUGCAC: -0.0393
CUGUGCUACACAUCGUAUGUACCGAAUCGGGGUUUGGGGAAAAAAAGGGGAAAAAAAGGGGAAAGUAUUAUGUUACGCCGUUCGGAUCUG: 0.617
CCUCAAGUCCUGUGCUACACAUCGUAUGUACCGAAUCGGGAGGGUGGGUGGGAAAGUAUUAUGUUACGCCGUUCGGAUCUGCACUUCCAG: -0.486

Repeated from above (set 2):
2'F-ANA at 2 3 6 7 11 14 15: 314 a.u.
2'F-ANA at 1 2 3 5 6 7 8 10: 46.3 a.u.
